Results of several laboratories.
Compare with care: the assays were run in different laboratories. ± marks the error that the study gave.
Organism: Acinetobacter baumannii

Compound | test | system | setting | scale | MIC
CC[C@H](C)[C@H](NC(=O)[C@H](CCCCN)NC(=O)[C@H](CC(N)=O)NC(=O)[C@H](Cc1c[nH]c2ccccc12)NC(=O)[C@H](Cc1ccccc1)NC(=O)[C@H](CCCCN)NC(=O)[C@H](CCCNC(=N)N)NC(=O)[C@H](CC(C)C)NC(=O)[C@H](Cc1c[nH]c2ccccc12)NC(=O)[C@H](CCCCN)NC(=O)[C@H](CCCNC(=N)N)NC(=O)[C@H](CC(C)C)NC(=O)CNC(C)=O)C(=O)N[C@@H](CCCCN)C(=O)N[C@@H](CCCNC(=N)N)C(N)=O | bacterial growth, broth microdilution | multidrug-resistant | – | – | 6.25 µM
C[C@H]1COc2c(N3CCN(C)CC3)c(F)cc3c(=O)c(C(=O)N[C@@H](CCCNC(=N)N)C(=O)N[C@@H](Cc4ccc(-c5ccccc5)cc4)C(=O)N[C@@H](CCCNC(=N)N)C(=O)N[C@@H](Cc4ccc(-c5ccccc5)cc4)C(=O)N[C@@H](CCCNC(=N)N)C(N)=O)cn1c23 | broth microdilution | ATCC 1799 | 18 h, 37 °C | – | 2.5 µM
CC[C@H](C)[C@H](NC(=O)[C@H](CCCN)NC(=O)[C@H](CC(N)=O)NC(=O)[C@H](CC(C)C)NC(=O)[C@H](Cc1ccccc1)NC(=O)[C@H](CCCN)NC(=O)[C@H](CCCNC(=N)N)NC(=O)[C@H](CC(C)C)NC(=O)[C@H](CC(C)C)NC(=O)[C@H](CCCN)NC(=O)[C@H](CCCNC(=N)N)NC(=O)[C@H](CC(C)C)NC(=O)CNC(C)=O)C(=O)N[C@@H](CCCN)C(=O)N[C@@H](CCCNC(=N)N)C(N)=O | bacterial growth, broth microdilution | multidrug-resistant | – | – | 6.25 µM
CC[C@H](C)[C@@H]1NC(=O)[C@@H](CC(C)C)NC(=O)[C@H](CCN)NC(=O)[C@@H](NC(=O)[C@@H](CO)NC(=O)[C@@H](NC(=O)[C@H](CCN)NC(=O)c2ccc(-c3ccccc3)cc2)[C@@H](C)O)CCNC(=O)[C@H](CC(C)C)NC(=O)[C@H](CCN)NC(=O)[C@H](CCN)NC1=O | – | 0301, mcr-1 | – | – | 1 µg/mL
CCCCCCCCCCCCCC(=O)N[C@H](CCN)C(=O)N[C@@H]1C(=O)N[C@@H](CCN)C(=O)N[C@@H](CC(C)C)C(=O)N[C@@H](CCN)C(=O)N[C@H](Cc2ccccc2)C(=O)N[C@@H](CC(C)C)C(=O)N[C@@H](CCN)C(=O)N[C@H](Cc2ccc(O)cc2)C(=O)N[C@@H](C(C)C)C(=O)N[C@@H](CC(=O)O)C(=O)O[C@@H]1C | broth microdilution | BNCC 194496 | – | – | 4 µg/mL
CC(C)(C)c1ccc(COc2cc3c(=O)c(C(=O)NCCNCCO)cn(Cc4ccccc4)c3cc2Cl)cc1 | – | ATCC 19606 | – | ≥80% growth inhibition | < 0.25 µg/mL
CC(C)C[C@H](NC(=O)[C@H](Cc1ccc(O)cc1)NC(=O)[C@@H]1CCCN1C(=O)[C@H](CCCNC(=N)N)NC(=O)[C@@H]1CCCN1C(=O)[C@H](CCCCN)NC(=O)[C@H](CC(=O)O)NC(=O)[C@@H]1CCCN1C(=O)[C@H](CCCNC(=N)N)NC(=O)C1(N)CCCCC1)C(=O)N1CCC[C@H]1C(=O)N[C@@H](CCCNC(=N)N)C(=O)N1CCC[C@H]1C(=O)N[C@@H](CCCNC(=N)N)C(=O)N1CCC[C@H]1C(=O)N1CCC[C@H]1C(=O)N[C@@H](CCCNC(=N)N)C(=O)N1CCC[C@H]1C(=O)N[C@H](C(=O)N[C@@H](CCCNC(=N)N)C(=O)N[C@@H](CSCc1cccc(CSC[C@H](NC(=O)[C@H](CCCNC(=N)N)NC(=O)[C@@H](NC(=O)[C@@H]2CCCN2C(=O)[C@H](CCCNC(=N)N)NC(=O)[C@@H]2CCCN2C(=O)[C@@H]2CCCN2C(=O)[C@H](CCCNC(=N)N)NC(=O)[C@@H]2CCCN2C(=O)[C@H](CCCNC(=N)N)NC(=O)[C@@H]2CCCN2C(=O)[C@H](CC(C)C)NC(=O)[C@H](Cc2ccc(O)cc2)NC(=O)[C@@H]2CCCN2C(=O)[C@H](CCCNC(=N)N)NC(=O)[C@@H]2CCCN2C(=O)[C@H](CCCCN)NC(=O)[C@H](CC(=O)O)NC(=O)[C@@H]2CCCN2C(=O)[C@H](CCCNC(=N)N)NC(=O)C2(N)CCCCC2)C(C)C)C(=O)NN)c1)C(=O)NN)C(C)C | bacterial growth | ATCC 19606, 100% Mueller-Hinton broth | 90 min, 37 °C, strain ATCC 19606 | – | 13.1 ± 0.6 µg/mL
CC[C@@H](C)[C@@H](NC(=O)[C@@H](C)NC(=O)[C@H](NC(=O)[C@@H](CC(=O)O)NC(=O)[C@@H](CCCCN)NC(=O)[C@@H](CO)NC(=O)[C@H](NC(=O)[C@@H](CC(N)=O)NC(=O)[C@@H](C)NC(=O)[C@H](NC(=O)[C@@H](CCC(=O)O)NC(=O)[C@@H](CCCCN)NC(=O)[C@H](NC(=O)[C@H](NC(=O)[C@@H](Cc1c[nH]cn1)NC(=O)[C@@H](CCCCN)NC(=O)[C@H](NC(=O)[C@@H](CCCCN)NC(=O)[C@@H](CCCCN)NC(=O)[C@H](NC(=O)[C@@H](CC(C)C)NC(=O)[C@@H](CCCCN)NC(=O)[C@@H](CC(N)=O)NC(=O)[C@@H](Cc1ccccc1)NC(=O)[C@@H](CCCNC(=N)N)NC(=O)[C@@H](CCCCN)NC(=O)[C@@H](CCCNC(=N)N)NC(=O)[C@@H](Cc1ccccc1)NC(=O)CN)C(C)C)C(C)C)[C@H](C)O)[C@H](C)CC)[C@H](C)O)C(C)C)C(C)C)C(=O)N[C@@H](C(=O)N[C@H](C)C(=O)NCC(=O)N[C@H](CO)C(=O)NCC(=O)N[C@@H](C(=O)N[C@H](C)C(=O)N[C@@H](C(=O)NCC(=O)N[C@H](C)C(=O)N[C@H](C)C(=O)N[C@H](CCSC)C(N)=O)C(C)C)C(C)C)C(C)C | – | isolate RKI 19/09, CAMHB | – | – | 32 µg/mL
CC[P+](CC)(CC)[Au-][S][C@@H]1O[C@H](COC(C)=O)[C@@H](OC(C)=O)[C@H](OC(C)=O)[C@H]1NC(C)=O | – | NCTC 13420 | – | – | 24 µM
CC(C)[C@@H]1NC(=O)[C@@H]2CCCN2C(=O)[C@@H](C)NC(=O)[C@H](CO)NC(=O)[C@H](C)NC(=O)[C@H](C(C)(C)C)NC(=O)[C@H](CCO)NC(=O)[C@H](Cc2c[nH]c3ccccc23)NC(=O)[C@H](CCO)NC(=O)[C@@H](CCN)NC(=O)[C@H](CCC(N)=O)NC(=O)[C@H](CCN)NC(=O)[C@H](Cc2ccc(O)cc2)NC(=O)[C@H]([C@@H](C)O)NC1=O | broth microdilution | NDM-2, NRZ 00687, CAMHB with 0.002% polysorbate-80 | 16 h, 37 °C | – | > 64 µg/mL

Some of these lines once more:
Compound | test | system | setting | scale | MIC
CC(C)C[C@H](NC(=O)[C@H](Cc1ccc(O)cc1)NC(=O)[C@@H]1CCCN1C(=O)[C@H](CCCNC(=N)N)NC(=O)[C@@H]1CCCN1C(=O)[C@H](CCCCN)NC(=O)[C@H](CC(=O)O)NC(=O)[C@@H]1CCCN1C(=O)[C@H](CCCNC(=N)N)NC(=O)C1(N)CCCCC1)C(=O)N1CCC[C@H]1C(=O)N[C@@H](CCCNC(=N)N)C(=O)N1CCC[C@H]1C(=O)N[C@@H](CCCNC(=N)N)C(=O)N1CCC[C@H]1C(=O)N1CCC[C@H]1C(=O)N[C@@H](CCCNC(=N)N)C(=O)N1CCC[C@H]1C(=O)N[C@H](C(=O)N[C@@H](CCCNC(=N)N)C(=O)N[C@@H](CSCc1cccc(CSC[C@H](NC(=O)[C@H](CCCNC(=N)N)NC(=O)[C@@H](NC(=O)[C@@H]2CCCN2C(=O)[C@H](CCCNC(=N)N)NC(=O)[C@@H]2CCCN2C(=O)[C@@H]2CCCN2C(=O)[C@H](CCCNC(=N)N)NC(=O)[C@@H]2CCCN2C(=O)[C@H](CCCNC(=N)N)NC(=O)[C@@H]2CCCN2C(=O)[C@H](CC(C)C)NC(=O)[C@H](Cc2ccc(O)cc2)NC(=O)[C@@H]2CCCN2C(=O)[C@H](CCCNC(=N)N)NC(=O)[C@@H]2CCCN2C(=O)[C@H](CCCCN)NC(=O)[C@H](CC(=O)O)NC(=O)[C@@H]2CCCN2C(=O)[C@H](CCCNC(=N)N)NC(=O)C2(N)CCCCC2)C(C)C)C(=O)NN)c1)C(=O)NN)C(C)C | bacterial growth | ATCC 19606, 100% Mueller-Hinton broth | 90 min, 37 °C, strain ATCC 19606 | – | 13.1 ± 0.6 µg/mL
